Results of several laboratories.
Every numbered part comes from another study and shows a few of its results, in no order.

Study 1
Target: Sal-like protein 4, full length isoform B (SALL4, Homo sapiens, UniProt Q9UJQ4-2, residues 1-616)
Technique: universal PBM
Molecule type: double-stranded DNA, one strand shown
Matrix: in vitro
Concentration: not given
Setting: 8-mer, flanks averaged, mean of replicates
Direction: higher = stronger binding
Oligonucleotide	E-score
ATTTGCCG	-0.0761
AAAACCCC	-0.0924
AATCCTCC	-0.139
CAGCTCCA	-0.153
GTACGCAC	-0.0587
CCTCGGTA	-0.224
ACCTTCAT	0.0107

Study 2
Target: RING finger protein unkempt homolog, zinc fingers 1-6, SBP tag (UNK, Homo sapiens, UniProt Q9C0B0, residues 30-357)
UniProt Q9C0B0, sequence (30-357, looked up): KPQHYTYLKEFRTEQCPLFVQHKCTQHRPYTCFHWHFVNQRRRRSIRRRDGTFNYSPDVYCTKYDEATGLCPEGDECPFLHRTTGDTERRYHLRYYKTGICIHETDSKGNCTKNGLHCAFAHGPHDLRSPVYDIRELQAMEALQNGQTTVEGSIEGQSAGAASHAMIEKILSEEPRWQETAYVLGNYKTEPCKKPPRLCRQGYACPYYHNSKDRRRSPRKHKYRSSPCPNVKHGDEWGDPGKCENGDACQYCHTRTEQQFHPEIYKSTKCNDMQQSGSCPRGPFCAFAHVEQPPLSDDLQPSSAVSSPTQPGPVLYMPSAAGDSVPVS
Technique: RNA Bind-n-Seq
Molecule type: RNA
Matrix: in vitro
Concentration: 100 nM
Setting: RNA with constant flanks, vertebrate orthologous sites, ends assumed
Reference: input RNA pool
Direction: higher = stronger binding
Oligonucleotide	bound/input enrichment
GGGAGUUCUACAGUCCGACGAUCUAUUAGUGUCGUACCAGCCUCUUAACCUCUUGUCUGUGCACAGCUUCAAAUGUUACUGUCUAGUUAGAUUUUUAUUUAAAAUAUGAAAAACUGCUUUUCCCAAGACGUUUUUUAAAAACACAACAGAGGAUUGAGCAUCA	1.79 ratio
GGGAGUUCUACAGUCCGACGAUCAAUUACACUAAUACUGAAGUUAAGAUUAAAAGGAUAUCCAAGGUGAUGAUAAAGUGUGUGUUGGUAGUUACUAAAAGAACCUUAGCUGUUAUUGCCUUGUAUUUCUAUCCCUUGUUUCAACAACAGAGGAUUGAGCAUCA	0.375 ratio
GGGAGUUCUACAGUCCGACGAUCUAUAAUUAUGAAAAUCUAAAGGAUUUUUAAUGUUUAAUUUCCCCCAGCAUCUAUAGUAAGACCUCUUUUUUCCAGGCAGAUCAUUCAGAGUGUGCGAGUGUGUGUGCACAUGUUACAAAGCAACAGAGGAUUGAGCAUCA	0.676 ratio
GGGAGUUCUACAGUCCGACGAUCUCAGUCCCCUGGGCCGGGACAGAUUUUUUUUAAUGUCUUGAGACUUAAACUCUGUGCUUAGAGGAGACUGUAACCUUUUUGUCUUUUUUUUUUUUUUUUUUUUAAACAAACAACUUCCACCAACAGAGGAUUGAGCAUCA	1.72 ratio

Study 3
Target: Histone acetyltransferase KAT6A, winged helix 1, GST fusion (KAT6A, Homo sapiens, UniProt Q92794, residues 1-85)
Technique: protein binding microarray
Molecule type: double-stranded DNA, one strand shown
Matrix: in vitro
Concentration: not given
Setting: 8-mer, flanks averaged, mean of 2 arrays, mostly near background
Reference: not given
Direction: higher = stronger binding
Target sequence (chain): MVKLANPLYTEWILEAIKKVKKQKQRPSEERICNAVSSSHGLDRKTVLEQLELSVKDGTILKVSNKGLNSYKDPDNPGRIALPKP
Oligonucleotide	E-score
CGCCCCGA	0.322
ACTATACA	-0.0472
ATCTTTAC	0.018
GCATTCAC	0.0947
CTTCACTC	-0.224
CGCGCGTC	0.445
AACCAAGT	-0.0923

Other studies, line by line
Molecule	target	assay	system	conditions	scale	endpoint	value
PhoQ, residues 284 288 289 292 302 303 SSTLSG	PhoP, residues 12 14 15 18 19 QQAYL (Escherichia coli, UniProt P23836)	Sort-seq, item: YFP reporter	E. coli	PhoQ-PhoP variant library, added: 10 µM Mg2+	reference: high Mg2+ state, higher = stronger signaling	fold induction	5.26
